Experimental data gathered from unrelated publications.
Each numbered part is a random draw from the data of one study; scales do not carry over between parts. Several values in a cell are separate wells, animals, samples, runs or records.
Chain of UniProt P25100 (whole entry, looked up): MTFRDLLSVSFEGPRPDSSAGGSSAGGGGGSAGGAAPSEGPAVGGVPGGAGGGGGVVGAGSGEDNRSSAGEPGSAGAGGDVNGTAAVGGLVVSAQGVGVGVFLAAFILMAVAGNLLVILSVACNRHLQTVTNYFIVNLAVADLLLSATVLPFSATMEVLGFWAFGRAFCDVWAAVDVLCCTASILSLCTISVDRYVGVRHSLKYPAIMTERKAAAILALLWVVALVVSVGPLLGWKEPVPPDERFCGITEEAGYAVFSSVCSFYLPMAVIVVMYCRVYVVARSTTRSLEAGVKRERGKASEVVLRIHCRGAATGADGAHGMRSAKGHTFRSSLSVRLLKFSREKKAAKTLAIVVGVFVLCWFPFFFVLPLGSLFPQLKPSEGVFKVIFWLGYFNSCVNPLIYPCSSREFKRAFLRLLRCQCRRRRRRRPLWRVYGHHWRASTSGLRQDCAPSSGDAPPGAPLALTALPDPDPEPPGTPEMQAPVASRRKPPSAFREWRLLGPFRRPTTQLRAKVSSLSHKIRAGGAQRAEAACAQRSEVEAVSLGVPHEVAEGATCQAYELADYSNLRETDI
Chain of UniProt P53778 (whole entry, looked up): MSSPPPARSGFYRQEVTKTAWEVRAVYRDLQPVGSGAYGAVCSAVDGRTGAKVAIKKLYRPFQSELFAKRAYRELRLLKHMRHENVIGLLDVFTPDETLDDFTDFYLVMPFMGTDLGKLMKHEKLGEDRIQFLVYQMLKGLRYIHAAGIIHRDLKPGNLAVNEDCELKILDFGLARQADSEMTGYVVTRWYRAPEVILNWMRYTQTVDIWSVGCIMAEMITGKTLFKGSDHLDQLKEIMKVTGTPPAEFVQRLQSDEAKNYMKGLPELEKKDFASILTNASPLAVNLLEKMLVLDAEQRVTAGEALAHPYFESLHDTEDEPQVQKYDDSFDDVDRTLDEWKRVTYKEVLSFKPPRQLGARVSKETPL
Chain of UniProt P51957 (whole entry, looked up): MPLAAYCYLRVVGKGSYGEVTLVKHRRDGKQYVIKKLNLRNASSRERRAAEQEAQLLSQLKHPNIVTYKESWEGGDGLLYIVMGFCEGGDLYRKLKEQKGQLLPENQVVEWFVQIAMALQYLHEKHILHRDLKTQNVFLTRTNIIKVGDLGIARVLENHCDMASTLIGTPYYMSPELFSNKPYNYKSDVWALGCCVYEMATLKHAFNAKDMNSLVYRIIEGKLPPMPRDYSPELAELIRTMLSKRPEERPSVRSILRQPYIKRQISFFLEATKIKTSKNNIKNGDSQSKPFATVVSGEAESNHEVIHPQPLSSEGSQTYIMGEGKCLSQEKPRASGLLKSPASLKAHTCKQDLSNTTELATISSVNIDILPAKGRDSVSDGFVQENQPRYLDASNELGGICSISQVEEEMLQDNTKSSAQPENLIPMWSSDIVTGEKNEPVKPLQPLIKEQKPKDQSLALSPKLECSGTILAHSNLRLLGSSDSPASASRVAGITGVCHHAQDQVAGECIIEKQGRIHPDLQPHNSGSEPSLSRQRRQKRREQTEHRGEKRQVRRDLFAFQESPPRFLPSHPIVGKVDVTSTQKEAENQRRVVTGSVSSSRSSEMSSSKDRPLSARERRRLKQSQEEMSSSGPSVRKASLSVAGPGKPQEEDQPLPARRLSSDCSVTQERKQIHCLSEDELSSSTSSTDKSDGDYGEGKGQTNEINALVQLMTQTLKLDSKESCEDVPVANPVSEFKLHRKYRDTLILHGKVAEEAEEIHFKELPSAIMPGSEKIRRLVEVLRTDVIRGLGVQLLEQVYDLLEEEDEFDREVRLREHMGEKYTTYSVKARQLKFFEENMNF
Chain of UniProt P54756 (whole entry, looked up): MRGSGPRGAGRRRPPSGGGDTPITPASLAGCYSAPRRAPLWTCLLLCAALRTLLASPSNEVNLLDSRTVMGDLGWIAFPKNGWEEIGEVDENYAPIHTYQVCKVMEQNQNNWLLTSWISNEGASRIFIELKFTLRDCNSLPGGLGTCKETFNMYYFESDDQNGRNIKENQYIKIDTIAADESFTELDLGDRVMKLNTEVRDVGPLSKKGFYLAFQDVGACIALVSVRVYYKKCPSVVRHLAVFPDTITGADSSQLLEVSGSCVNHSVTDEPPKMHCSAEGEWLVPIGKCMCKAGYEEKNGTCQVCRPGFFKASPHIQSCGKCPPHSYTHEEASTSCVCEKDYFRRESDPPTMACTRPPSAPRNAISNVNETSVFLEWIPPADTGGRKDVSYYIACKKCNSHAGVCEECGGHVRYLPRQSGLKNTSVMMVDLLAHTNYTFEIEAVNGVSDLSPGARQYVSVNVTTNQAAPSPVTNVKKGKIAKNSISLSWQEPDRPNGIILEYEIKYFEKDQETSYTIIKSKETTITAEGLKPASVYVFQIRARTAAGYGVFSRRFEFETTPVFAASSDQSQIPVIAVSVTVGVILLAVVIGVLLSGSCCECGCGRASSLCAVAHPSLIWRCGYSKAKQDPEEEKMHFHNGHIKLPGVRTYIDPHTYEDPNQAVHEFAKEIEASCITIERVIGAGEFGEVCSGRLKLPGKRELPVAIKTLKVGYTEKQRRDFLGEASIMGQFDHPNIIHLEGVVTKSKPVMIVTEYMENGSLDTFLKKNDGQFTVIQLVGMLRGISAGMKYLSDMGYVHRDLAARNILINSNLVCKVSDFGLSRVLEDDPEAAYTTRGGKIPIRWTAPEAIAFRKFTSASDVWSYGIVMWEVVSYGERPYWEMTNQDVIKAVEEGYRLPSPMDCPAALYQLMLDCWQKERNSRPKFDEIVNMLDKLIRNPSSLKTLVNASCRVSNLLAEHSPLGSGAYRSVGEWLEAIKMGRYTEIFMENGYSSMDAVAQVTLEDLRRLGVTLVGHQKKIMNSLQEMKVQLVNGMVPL
Chain of UniProt O14757 (whole entry, looked up): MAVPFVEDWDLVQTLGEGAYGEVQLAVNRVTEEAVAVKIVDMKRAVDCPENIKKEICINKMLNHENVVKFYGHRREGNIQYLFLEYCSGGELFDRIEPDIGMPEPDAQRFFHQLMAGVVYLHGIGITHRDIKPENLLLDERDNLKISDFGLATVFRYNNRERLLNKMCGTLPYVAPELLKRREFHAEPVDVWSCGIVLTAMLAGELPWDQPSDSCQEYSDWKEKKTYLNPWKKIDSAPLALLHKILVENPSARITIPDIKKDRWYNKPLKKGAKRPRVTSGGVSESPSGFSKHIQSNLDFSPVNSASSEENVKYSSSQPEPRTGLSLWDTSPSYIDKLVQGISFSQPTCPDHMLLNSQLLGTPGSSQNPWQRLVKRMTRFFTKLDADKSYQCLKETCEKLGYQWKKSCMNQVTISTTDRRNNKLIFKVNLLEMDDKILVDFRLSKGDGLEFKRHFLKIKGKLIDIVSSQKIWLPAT
Chain of UniProt P08172 (whole entry, looked up): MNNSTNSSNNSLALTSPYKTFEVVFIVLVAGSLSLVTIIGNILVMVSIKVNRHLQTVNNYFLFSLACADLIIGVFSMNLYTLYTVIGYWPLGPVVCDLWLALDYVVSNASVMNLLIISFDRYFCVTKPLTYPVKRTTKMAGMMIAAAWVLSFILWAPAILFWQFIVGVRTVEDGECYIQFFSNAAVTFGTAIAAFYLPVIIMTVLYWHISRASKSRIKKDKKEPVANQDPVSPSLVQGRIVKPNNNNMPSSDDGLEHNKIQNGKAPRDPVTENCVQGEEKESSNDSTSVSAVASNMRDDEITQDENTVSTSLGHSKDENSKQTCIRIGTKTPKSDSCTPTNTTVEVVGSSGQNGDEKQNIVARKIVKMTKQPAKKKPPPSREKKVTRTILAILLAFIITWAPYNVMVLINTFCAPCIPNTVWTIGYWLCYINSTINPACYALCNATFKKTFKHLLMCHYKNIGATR

Series 1
SMILES: CC#CC(=O)Nc1cc2c(Nc3ccc(F)c(Cl)c3)ncnc2cn1
Effect on: enzyme activity
Action: inhibitor
Concentration: 0.5 µM
Relative to: control
target	remaining activity [%]
MAPK12 (Homo sapiens, UniProt P53778)	99.4
KIT (Homo sapiens, UniProt P10721)	98.5
PRKCD (Homo sapiens, UniProt Q05655)	99.8
MAPK13 (Homo sapiens, UniProt O15264)	105
MAP4K2 (Homo sapiens, UniProt Q12851)	114
BTK (Homo sapiens, UniProt Q06187)	2.88
LYN (Homo sapiens, UniProt P07948)	88.3
PRKG1 (Homo sapiens, UniProt Q13976)	97.6
CSNK2A1 (Homo sapiens, UniProt P68400)	90.9
PLK2 (Homo sapiens, UniProt Q9NYY3)	103
IRAK4 (Homo sapiens, UniProt Q9NWZ3)	102
MKNK2 (Homo sapiens, UniProt Q9HBH9)	66
EPHA5 (Homo sapiens, UniProt P54756)	101
WNK2 (Homo sapiens, UniProt Q9Y3S1)	107
AKT3 (Homo sapiens, UniProt Q9Y243)	97.8
CHEK1 (Homo sapiens, UniProt O14757)	106
MAP2K6 (Homo sapiens, UniProt P52564)	100
LRRK2 (Homo sapiens, UniProt Q5S007)	92.3
NEK4 (Homo sapiens, UniProt P51957)	85.8
CSNK1A1 (Homo sapiens, UniProt P48729)	107
Cyclin-dependent kinase 9, with cyclin T1 (CDK9, Homo sapiens, UniProt P50750)	90.6
MAP3K10 (Homo sapiens, UniProt Q02779)	98.9

Series 2
SMILES: COc1ccc2c(c1)O[C@@H](c1ccc(OC)c(OC)c1)C[C@H]2NC(=O)C1(c2ccc3c(c2)OC(F)(F)O3)CC1
Effect on: binding
Method: radioligand binding
Concentration: 10 µM
target	inhibition
HRH2 (Homo sapiens, UniProt P25021)	-0.89%
ADRA2C (Homo sapiens, UniProt P18825)	10.1%
ADRB3 (Homo sapiens, UniProt P13945)	-7.53%
DRD1 (Homo sapiens, UniProt P21728)	35.1%
HTR7 (Homo sapiens, UniProt P34969)	-21.8%
CHRM4 (Homo sapiens, UniProt P08173)	0.59%
CHRM2 (Homo sapiens, UniProt P08172)	-13.4%
ADRA1D (Homo sapiens, UniProt P25100)	0.16%
ADRA1B (Homo sapiens, UniProt P35368)	5.97%
ADRA2B (Homo sapiens, UniProt P18089)	19.6%
HRH1 (Homo sapiens, UniProt P35367)	49.9%
HRH4 (Homo sapiens, UniProt Q9H3N8)	6.21%

Series 3
SMILES: Cc1cc2c(C(N)=O)c(N)n(-c3c(C)ccc(O)c3C)c2nc1C
SRC: Proto-oncogene tyrosine-protein kinase Src (SRC, Homo sapiens, UniProt P12931)
target or system	test	conditions	inhibition
NCI-H1568	cell growth	10000 nM	96.6%
SW1463	cell proliferation	10000 nM	96.7%
SRC	kinase activity, HTRF	3.333 µM	100%
HCC1569	automated capillary immunoblot, item: CDK1 phospho-Thr14	0.02 nM	2.85%
MDA-MB-436	cell proliferation	13.72 nM	-0.19% and 6.84% and 9.62%
U-251 MG	cell growth	30000 nM	98.3%
SRC	kinase activity, inhibitor, HTRF	0.1235 µM	93.1%
HCC1569	automated capillary immunoblot, item: CDK1 phospho-Thr14	1.37 nM	16.6%
SRC	enzyme activity, inhibitor, TR-FRET	0.3704 µM	97.4%
MKN-1	cell proliferation	1.524 nM	-0.87% and -1.09% and -0.69%

Series 4
Target: Eukaryotic initiation factor 4A-I (EIF4A1, Homo sapiens, UniProt P60842)
Chain of UniProt P60842 (whole entry, looked up): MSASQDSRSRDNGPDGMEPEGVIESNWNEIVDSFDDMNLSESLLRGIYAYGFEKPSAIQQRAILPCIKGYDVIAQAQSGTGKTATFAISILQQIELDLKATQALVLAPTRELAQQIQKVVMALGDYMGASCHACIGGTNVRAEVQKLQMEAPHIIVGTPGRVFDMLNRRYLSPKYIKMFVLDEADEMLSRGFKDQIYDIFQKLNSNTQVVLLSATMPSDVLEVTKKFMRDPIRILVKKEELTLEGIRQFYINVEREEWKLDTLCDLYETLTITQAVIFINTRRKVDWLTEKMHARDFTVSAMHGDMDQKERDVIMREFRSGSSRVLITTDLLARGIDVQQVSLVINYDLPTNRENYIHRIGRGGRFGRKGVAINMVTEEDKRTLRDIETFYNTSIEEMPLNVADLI
Effect on: RNA clamping
Method: fluorescence polarization
Concentration: concentration not given
With: FAM-labelled poly r(AG)8 RNA
SMILES	fluorescence polarization change [mP]
O=C1C[C@@H](c2ccccc2)[C@]2(c3ccc(Br)cc3)Oc3cc(F)cc(F)c3[C@]12O	13.7
COCCN[C@@]12c3nc(-c4ccccc4)[nH]c(=O)c3[C@@H](c3ccccc3)[C@]1(c1ccc(OC)cc1)Oc1cc(OC)cc(OC)c12	10.6
COc1ccc([C@]23Oc4cc(OC)cc(OC)c4[C@](O)([C@H]2O)[C@@H](C(=O)N(C)OC)[C@@H]3c2ccccc2)cc1	11.4
COc1ccc([C@@]23Oc4cc(O)cc(OC)c4[C@]2(O)c2nc4n(c(=O)c2[C@H]3c2ccccc2)CCC4)cc1	40.7
COCCN[C@@]12C(=O)C[C@@H](c3ccccc3)[C@]1(c1ccc(OC)cc1)Oc1cc(OC)cc(OC)c12	-13.3
COCCOCOC(=C(F)F)c1ccc([C@@H]2[C@@H](C(=O)N(C)OC)[C@@H](O)[C@@]3(O)c4c(OC)cc(OC)cc4O[C@@]23c2ccc(OC)cc2)cc1	-13.8
C#CCOc1cc(OC)c2c(c1)O[C@@]1(c3ccc(OC)cc3)[C@H](c3ccccc3)c3c(nc4n(c3=O)CCC4)[C@@]21O	20.4
C#CCCC1(CCOc2ccc([C@@H]3[C@@H](C(=O)N(C)OC)[C@@H](O)[C@@]4(O)c5c(OC)cc(OC)cc5O[C@@]34c3ccc(OC)cc3)cc2)N=N1	1.7
COc1ccc([C@@]23Oc4cc(O)cc(OC)c4[C@]2(O)[C@H](O)[C@H](C(=O)N(C)OC)[C@H]3c2ccccc2)cc1	12

Repeated from above (series 4):
SMILES	fluorescence polarization change [mP]
C#CCOc1cc(OC)c2c(c1)O[C@@]1(c3ccc(OC)cc3)[C@H](c3ccccc3)c3c(nc4n(c3=O)CCC4)[C@@]21O	20.4
COc1ccc([C@@]23Oc4cc(O)cc(OC)c4[C@]2(O)[C@H](O)[C@H](C(=O)N(C)OC)[C@H]3c2ccccc2)cc1	12
COCCN[C@@]12c3nc(-c4ccccc4)[nH]c(=O)c3[C@@H](c3ccccc3)[C@]1(c1ccc(OC)cc1)Oc1cc(OC)cc(OC)c12	10.6
C#CCCC1(CCOc2ccc([C@@H]3[C@@H](C(=O)N(C)OC)[C@@H](O)[C@@]4(O)c5c(OC)cc(OC)cc5O[C@@]34c3ccc(OC)cc3)cc2)N=N1	1.7
COc1ccc([C@@]23Oc4cc(O)cc(OC)c4[C@]2(O)c2nc4n(c(=O)c2[C@H]3c2ccccc2)CCC4)cc1	40.7
O=C1C[C@@H](c2ccccc2)[C@]2(c3ccc(Br)cc3)Oc3cc(F)cc(F)c3[C@]12O	13.7
COCCN[C@@]12C(=O)C[C@@H](c3ccccc3)[C@]1(c1ccc(OC)cc1)Oc1cc(OC)cc(OC)c12	-13.3
COc1ccc([C@]23Oc4cc(OC)cc(OC)c4[C@](O)([C@H]2O)[C@@H](C(=O)N(C)OC)[C@@H]3c2ccccc2)cc1	11.4
